Assay results pooled from the literature.
Every numbered part comes from another study and shows a few of its results, in no order.

Study 1 — technique: universal PBM; form: double-stranded DNA, one strand shown; medium: in vitro; tested at: not given; reading: higher = stronger binding; quantity: E-score
Target: Sal-like protein 4, full length isoform B (SALL4, Homo sapiens, UniProt Q9UJQ4-2, residues 1-616)
Setting: 8-mer, flanks averaged, mean of replicates
CATTGTAG: 0.0946
CCACGTTA: 0.159
CCACTGGG: -0.308
CTAACCTA: -0.02

Study 2 — technique: protein-binding microarray; form: double-stranded DNA, one strand shown; medium: in vitro; tested at: 2200 nM top; setting: 60-bp whole probe; with: salmon DNA 0.4 mg/ml; reference: random background probes; reading: higher = stronger binding; quantity: fitted relative affinity
Target: Interferon regulatory factor 7, full length, phosphomimetic (IRF7, Homo sapiens, UniProt Q92985, residues 1-503, S471D/S472D/S475D/S476D/S477D/S483D/S484D/S487D)
Target sequence (chain): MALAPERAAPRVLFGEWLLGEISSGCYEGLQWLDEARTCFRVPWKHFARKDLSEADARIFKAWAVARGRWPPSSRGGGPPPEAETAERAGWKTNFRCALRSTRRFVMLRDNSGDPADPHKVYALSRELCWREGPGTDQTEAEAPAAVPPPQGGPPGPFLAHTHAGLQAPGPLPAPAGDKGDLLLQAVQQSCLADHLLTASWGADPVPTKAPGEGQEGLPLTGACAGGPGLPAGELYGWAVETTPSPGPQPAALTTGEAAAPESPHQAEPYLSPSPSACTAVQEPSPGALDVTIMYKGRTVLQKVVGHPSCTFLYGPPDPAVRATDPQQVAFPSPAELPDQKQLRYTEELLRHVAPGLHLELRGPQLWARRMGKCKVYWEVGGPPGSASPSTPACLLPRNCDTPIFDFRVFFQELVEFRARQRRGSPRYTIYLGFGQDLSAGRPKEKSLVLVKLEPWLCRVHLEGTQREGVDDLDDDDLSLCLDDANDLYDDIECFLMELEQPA
GCCTAGCACTCACTCTTTGGCAAAGCCAGGTGCTAGGTCTTGATTCGCTTGACGCTGCTG: 0.862 z-score
GCCTAGCACTTACGTATCCTACTGCTTTAGTGCTAGGTCTTGATTCGCTTGACGCTGCTG: 2.16 z-score
GCCTAGCACTTAGGTTGCCTTATCCTTTAGTGCTAGGTCTTGATTCGCTTGACGCTGCTG: 0.743 z-score

Study 3 — technique: protein binding microarray; form: double-stranded DNA, one strand shown; medium: in vitro; tested at: not given; reference: not given; reading: higher = stronger binding; quantity: E-score
Target: Histone acetyltransferase KAT6A, winged helix 1, GST fusion (KAT6A, Homo sapiens, UniProt Q92794, residues 1-85)
Setting: 8-mer, flanks averaged, mean of 2 arrays, mostly near background
Residues (chain): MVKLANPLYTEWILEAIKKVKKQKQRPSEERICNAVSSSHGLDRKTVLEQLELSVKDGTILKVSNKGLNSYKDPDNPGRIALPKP
CGGGGAAA: 0.168
AGGGCACC: -0.114
GCCAAATA: -0.115
CCTGTCCC: -0.105

Mixed results
PhoQ, residues 284 288 289 292 302 303 ASASEQ — fold induction (PhoP, residues 12 14 15 18 19 FWNTL (Escherichia coli, UniProt P23836); Sort-seq, item: YFP reporter; E. coli; PhoQ-PhoP variant library, with: 10 µM Mg2+; reference: high Mg2+ state, higher = stronger signaling): 0.922

A few entries again (study 1):
CCACGTTA: 0.159
CATTGTAG: 0.0946
